Assay results pooled from the literature.
Compare with care: the assays were run in different laboratories.
Target: Mu-type opioid receptor (Oprm1, Rattus norvegicus, UniProt P33535)
UniProt P33535, sequence (whole entry, looked up): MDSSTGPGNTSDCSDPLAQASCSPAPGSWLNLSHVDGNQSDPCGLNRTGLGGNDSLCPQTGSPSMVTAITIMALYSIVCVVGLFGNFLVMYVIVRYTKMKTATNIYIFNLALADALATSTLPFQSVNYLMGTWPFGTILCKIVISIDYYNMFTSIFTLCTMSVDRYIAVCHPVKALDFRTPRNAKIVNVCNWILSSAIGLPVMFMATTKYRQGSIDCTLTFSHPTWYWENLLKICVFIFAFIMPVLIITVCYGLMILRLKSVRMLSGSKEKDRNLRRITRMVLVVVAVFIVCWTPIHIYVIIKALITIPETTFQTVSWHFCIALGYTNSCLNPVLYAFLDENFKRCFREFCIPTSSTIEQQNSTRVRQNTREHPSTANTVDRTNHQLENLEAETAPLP

SMILES | assay | setting | Ki [nM]
Cc1cc(O)cc(C)c1CC(N)C(=O)NC1CCNc2c(Cc3ccccc3)cccc21 (stereo not drawn) | ligand displacement, radioligand | cell membranes | 48
N=C(N)NCCC[C@@H]1NC(=O)[C@H](Cc2ccc(O)cc2)NC(=O)CNC(=O)[C@H](Cc2c[nH]c3ccccc23)NC(=O)[C@H](CNC(=O)c2ccccc2N)NC1=O | binding |  | 31000
COC(=O)N(C)[C@@H](Cc1ccccc1)C(=O)N[C@@H](Cc1ccccc1)C(=O)N[C@@H](Cc1ccc2ccccc2c1)C(=O)N[C@@H](CCCNC(=N)N)C(=O)N[C@@H](CC(C)C)C(=O)N[C@@H](CCCNC(=N)N)C(=O)N[C@@H](CCCNC(=N)N)C(=O)N[C@H](C)C(=O)N[C@@H](CCCNC(=N)N)C(=O)N1CCC[C@H]1C(=O)N[C@@H](CCCCN)C(N)=O | ligand displacement, radioligand |  | 53.8
Cc1cc(O)cc(C)c1CC(N)C(=O)NC1CCNc2ccc(CN3CCOCC3)cc21 (stereo not drawn) | ligand displacement, radioligand | cell membranes | 0.6
CCC(=O)N(CC1CCCCN1C(=O)CCNC(=O)[C@H](Cc1ccccc1)NC(=O)CNC(=O)[C@@H](C)NC(=O)[C@@H](N)Cc1c(C)cc(O)cc1C)c1ccccc1 (stereo partly drawn) | cell-free assay |  | 0.9
N=C(N)NCCC[C@@H]1NC(=O)[C@H](CCCNC(=N)N)NC(=O)[C@H](NC(=O)[C@H](Cc2ccccc2)NC(=O)CNC(=O)CNC(=O)[C@H](Cc2ccccc2)NCc2ccccc2)CC(=O)NC[C@@H](C(=O)N[C@@H](CCCNC(=N)N)C(=O)N2CCC[C@H]2C(=O)N[C@@H](CCCCN)C(N)=O)NC1=O | ligand displacement, radioligand | cell membranes | 11300
CC(=O)N(C)[C@@H](Cc1ccccc1)C(=O)N[C@@H](Cc1ccccc1)C(=O)N[C@@H](Cc1ccc(O)cc1)C(=O)N[C@@H](CCCNC(=N)N)C(=O)N[C@@H](CC(C)C)C(=O)N[C@@H](CCCNC(=N)N)C(=O)N[C@@H](CCCNC(=N)N)C(=O)N[C@H](C)C(=O)N[C@@H](CCCNC(=N)N)C(=O)N1CCC[C@H]1C(=O)N[C@@H](CCCCN)C(N)=O | ligand displacement, radioligand |  | 3370
Cc1cc(O)cc(C)c1CC(N)C(=O)NC1CCNc2c(CN3CCCCC3)cc(Cc3ccccc3)cc21 (stereo not drawn) | ligand displacement, radioligand | cell membranes | 0.07
Cc1cc(O)cc(C)c1C[C@H](N)C(=O)N[C@@H](C(=O)NCC(=O)N[C@@H](Cc1ccc2ccccc2c1)C(=O)N[C@@H](CC(C)C)C(=O)N[C@@H](CO)C(N)=O)[C@H](C)O | ligand displacement, radioligand | pH 7.4, cell membranes | 0.5
CC(C)C[C@H](NC(=O)[C@H](CCCNC(=N)N)NC(=O)[C@H](Cc1c[nH]c2ccccc12)NC(=O)[C@H](Cc1ccccc1)NC(=O)[C@H](Cc1ccccc1)N(C)C(=O)COc1ccccc1)C(=O)N[C@@H](CCCNC(=N)N)C(=O)N[C@@H](CCCNC(=N)N)C(=O)N[C@H](C)C(=O)N[C@@H](CCCNC(=N)N)C(=O)N1CCC[C@H]1C(=O)N[C@@H](CCCCN)C(N)=O | ligand displacement, radioligand |  | 1250
Cc1cc(O)cc(C)c1CC(N)C(=O)NC1CCNc2ccc(Cc3ccc4c(c3)OCO4)cc21 (stereo not drawn) | ligand displacement, radioligand | cell membranes | 0.12
Cc1cc(O)cc(C)c1CC(N)C(=O)NC1CCNc2c(C(=O)Nc3ccccc3)cc(Cc3ccccc3)cc21 (stereo not drawn) | ligand displacement, radioligand | cell membranes | 0.32
Cc1cc(O)cc(C)c1CC(N)C(=O)NC1CCNc2ccc(CN3CCC4CCCCC4C3)cc21 (stereo not drawn) | ligand displacement, radioligand | cell membranes | 0.15
COC(=O)N(C)[C@@H](Cc1ccccc1)C(=O)N[C@@H](Cc1ccccc1)C(=O)N[C@@H](Cc1c[nH]c2ccccc12)C(=O)N[C@@H](CCCNC(=N)N)C(=O)N[C@@H](CC(C)C)C(=O)N[C@@H](CCCNC(=N)N)C(=O)N[C@@H](CCCNC(=N)N)C(=O)N[C@H](C)C(=O)N[C@@H](CCCNC(=N)N)C(=O)N1CCC[C@H]1C(=O)N[C@@H](CCCCN)C(N)=O | ligand displacement, radioligand |  | 1280
Cc1cc(O)cc(C)c1CC(N)C(=O)NC1CCNc2c(CN3CCOCC3)cc(Cc3ccccc3)cc21 (stereo not drawn) | ligand displacement, radioligand | cell membranes | 0.15
N=C(N)NCCC[C@@H]1NC(=O)[C@@H](NC(=O)[C@H](Cc2ccccc2)NC(=O)CNC(=O)CNC(=O)[C@H](Cc2ccc(O)cc2)NCc2ccccc2)CC(=O)NC[C@@H](C(=O)N[C@@H](CCCNC(=N)N)C(=O)N2CCC[C@H]2C(=O)N[C@@H](CCCCN)C(N)=O)NC(=O)[C@H](CCCNC(=N)N)NC1=O | ligand displacement, radioligand | cell membranes | 2610
Cc1cc(O)cc(C)c1CC(N)C(=O)NC1CCNc2ccc(Cn3cncn3)cc21 (stereo not drawn) | ligand displacement, radioligand | cell membranes | 3.1
COC(=O)N(C)[C@@H](Cc1ccccc1)C(=O)N[C@@H](Cc1ccccc1)C(=O)N[C@@H](Cc1ccccc1)C(=O)N[C@@H](CCCNC(=N)N)C(=O)N[C@@H](CC(C)C)C(=O)N[C@@H](CCCNC(=N)N)C(=O)N[C@@H](CCCNC(=N)N)C(=O)N[C@H](C)C(=O)N[C@@H](CCCNC(=N)N)C(=O)N1CCC[C@H]1C(=O)N[C@@H](CCCCN)C(N)=O | ligand displacement, radioligand |  | 1750
Cc1cc(O)cc(C)c1CC(N)C(=O)NC1CCNc2ccc(Cc3cccnc3)cc21 (stereo not drawn) | ligand displacement, radioligand | cell membranes | 0.66
Cc1cc(O)cc(C)c1CC(N)C(=O)NC1CCNc2c(CCc3ccccc3)cc(Cc3ccccc3)cc21 (stereo not drawn) | ligand displacement, radioligand | cell membranes | 0.37
CC(=O)NCC(=O)N(C)[C@@H](Cc1ccccc1)C(=O)N[C@@H](Cc1ccccc1)C(=O)N[C@@H](Cc1c[nH]c2ccccc12)C(=O)N[C@@H](CCCNC(=N)N)C(=O)N[C@@H](CC(C)C)C(=O)N[C@@H](CCCNC(=N)N)C(=O)N[C@@H](CCCNC(=N)N)C(=O)N[C@H](C)C(=O)N[C@@H](CCCNC(=N)N)C(=O)N1CCC[C@H]1C(=O)N[C@@H](CCCCN)C(N)=O | ligand displacement, radioligand |  | 3760
CCCCc1cc(Cc2ccccc2)cc2c1NCCC2NC(=O)C(N)Cc1c(C)cc(O)cc1C (stereo not drawn) | ligand displacement, radioligand | cell membranes | 0.76
CC(=O)N(C)[C@@H](Cc1ccccc1)C(=O)N[C@@H](Cc1ccccc1)C(=O)N[C@@H](Cc1ccc2ccccc2c1)C(=O)N[C@@H](CCCNC(=N)N)C(=O)N[C@@H](CC(C)C)C(=O)N[C@@H](CCCNC(=N)N)C(=O)N[C@@H](CCCNC(=N)N)C(=O)N[C@H](C)C(=O)N[C@@H](CCCNC(=N)N)C(=O)N1CCC[C@H]1C(=O)N[C@@H](CCCCN)C(N)=O | ligand displacement, radioligand |  | 121
CC(C)C[C@H](NC(=O)[C@H](Cc1cccc2ccccc12)NC(=O)CNC(=O)[C@H](NC(=O)[C@@H](N)Cc1ccc(O)cc1)[C@H](C)O)C(=O)N[C@@H](CO)C(N)=O | ligand displacement, radioligand | pH 7.4, cell membranes | 0.8
Cc1cc(O)cc(C)c1CC(N)C(=O)NC1CCNc2c(C(=O)O)cc(Cc3ccccc3)cc21 (stereo not drawn) | ligand displacement, radioligand | cell membranes | 0.47
Cc1cc(O)cc(C)c1CC(N)C(=O)NC1CCNc2ccc(Cc3ccc4ncccc4c3)cc21 (stereo not drawn) | ligand displacement, radioligand | cell membranes | 2.1
CCCC[C@@H]1NC(=O)[C@H](Cc2ccccc2)NC(=O)CNC(=O)[C@H](NC(=O)[C@@H](N)Cc2ccc(O)cc2)C(C)(C)SSC(C)(C)[C@@H](C(=O)N[C@@H](Cc2c[nH]c3ccccc23)C(=O)NCc2cc(C(F)(F)F)cc(C(F)(F)F)c2)NC(=O)[C@@H]2CCCN2C1=O | binding |  | 2000
CCCCC(=N)NCc1ccc2[nH]c3c(c2c1)CC1(O)C2Cc4ccc(O)c5c4C1(CCN2CC1CC1)C3O5 (stereo not drawn) | ligand displacement, radioligand | cell membranes | 0.88
Cc1cc(O)cc(C)c1C[C@H](N)C(=O)N1Cc2ccccc2C[C@H]1CN[C@@H](Cc1ccccc1)C(=O)N[C@@H](Cc1ccccc1)C(N)=O | ligand displacement, radioligand | cell membranes | 0.4
C[C@@H](NC(=O)[C@@H](N)Cc1ccc(O)cc1)C(=O)NCC(=O)N[C@@H](Cc1ccc(F)cc1)C(=O)N1CCN(C(=O)[C@H](Cc2ccc(F)cc2)NC(=O)CNC(=O)[C@@H](C)NC(=O)[C@@H](N)Cc2ccc(O)cc2)CC1 | ligand displacement, radioligand | cell membranes | 0.11
